Measurements pooled from the literature.
A part holds a random share of what one study measured. Substitutions count along the parent as printed.

Series 1 — method: RNA Bind-n-Seq; molecule type: RNA; medium: in vitro; concentration: not given; baseline: input RNA pool; direction: higher = stronger binding
Target: RING finger protein unkempt homolog, zinc fingers 1-6, GST-SBP tag (UNK, Homo sapiens, UniProt Q9C0B0, residues 30-357)
Sequence of UniProt Q9C0B0 (30-357, looked up): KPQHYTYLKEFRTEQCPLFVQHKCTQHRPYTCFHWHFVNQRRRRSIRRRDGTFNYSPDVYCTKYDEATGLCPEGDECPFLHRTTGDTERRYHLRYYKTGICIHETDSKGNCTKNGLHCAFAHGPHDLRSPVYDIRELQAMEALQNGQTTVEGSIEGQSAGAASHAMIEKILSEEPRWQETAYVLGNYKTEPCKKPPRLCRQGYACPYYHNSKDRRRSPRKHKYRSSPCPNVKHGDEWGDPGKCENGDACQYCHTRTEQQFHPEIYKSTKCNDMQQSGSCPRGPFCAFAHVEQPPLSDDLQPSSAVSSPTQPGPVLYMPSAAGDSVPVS
Notes: RNA with constant flanks, human and mouse sites, ends assumed
| Strand | bound/input enrichment |
| --- | --- |
| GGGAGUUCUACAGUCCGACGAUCGAAAAAUUAUCUAGGCCUGAUCUCAAACGGCAGAAUCUACUGUAAUCAAAUCAAUGACUUUUUUAGACACAUUUUAUAAAAAUGCAGCACAUGUAGUGUUGCCCCCCACCCAAUCUGUAUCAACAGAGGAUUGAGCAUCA | 23.7 ratio |
| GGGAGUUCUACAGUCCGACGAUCAAGAGCAGAGGAAAUAACUUUACUGCAAAUCAGAACAAUGAUGAUAAUAUUCCAAACACCACUAGUGACUGCAGGCUGGAGAGUGAGGCCCCCUAUUUGUUGAGUCCAGAGGCUGGGCCUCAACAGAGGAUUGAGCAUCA | 0.306 ratio |
| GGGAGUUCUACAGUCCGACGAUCUUUUCAUGCCCGGCCUUUGUUCCUCCAUAAAUGUGUCCUUUAGUUUCAAACAGAUCUUUAUAGUUCGUGCUUCAUAAGCCAAUUCUUAUUAUUAUUUUUGGGGGACUCUUCUUCAAAGAGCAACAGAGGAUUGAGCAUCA | 7.2 ratio |
| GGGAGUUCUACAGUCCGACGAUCGAGCAUAAAGCUGAGAAAGUCCCAGCCGUAGCUAACUACAUUAUGAAAAUACACAAUUUUACUAGCAAAUGCCUCUACUGUAAUCGCUAUUUGCCUACAGAUACCCUACUCAACCAUAUGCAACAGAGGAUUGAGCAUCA | 4.62 ratio |
| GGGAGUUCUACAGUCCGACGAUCCCUACUGUAAACAACUCAGGGCAGUAUUCUCGAUAUCCUUACAGUAACCUAAAUCAGGGAUUAGUUAACAGUACAGGGAUGAAUCAAAAUUUAGGCCUUACAAACAGUACUCCAAUGAAUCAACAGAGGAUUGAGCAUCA | 0.766 ratio |
| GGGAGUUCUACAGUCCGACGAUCGAAACUAUUCCUAAAGAGGAGAAAGCUGAAAAGGAAGCUCGGAGAUCAUCUCUUGAGAAACAUAGAAAAGAAAAGCCUUUUAAAACCGGGAGAGGCAGAAUUUCCACUCCUGAAAGAAAACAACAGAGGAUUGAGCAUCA | 0.266 ratio |
| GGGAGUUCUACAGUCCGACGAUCAUGGAUGACAAGGCUUCUGUUGGAAAAAUCAGUGUCUCUUCAGACUCAGUAUCUACUCUUAAUAGUGAAGAUUUUGUCUUGGUUUCCAGGCAAGGAGAUGAGACACCAUCUACAAAUAAUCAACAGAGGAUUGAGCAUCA | 0.271 ratio |
| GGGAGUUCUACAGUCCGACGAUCCUAAACCAGCUAGACCAGCGCUUUCCGGAGAACCACCCUACCCAUAGCAGCCCCCUGGAUACCAUCUAUUACCAUCGGGAGCUCCUUUGCUAUUCUCUGGAUGGACUUCGUGUAGAUCUGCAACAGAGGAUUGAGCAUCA | 0.272 ratio |

Series 2 — target: CCNA1, cyclin fold, Cln2 fusion (human); method: yeast growth competition, sequencing; medium: yeast; notes: weak parent motif; baseline: not given; direction: higher = stronger binding
Starting sequence: WEE1 docking peptide (human); HKTFRKLRLFDTP
| Variant | normalised enrichment score |
| --- | --- |
| HKTFRKLRTFDTP [L9T] | 0.118 |
| HKHFRKLRLFDTP [T3H] | 0.502 |
| HKTFRKLRLRDTP [F10R] | 0.527 |
| HKTFRKARLFDTP [L7A] | 0.0657 |

Series 3 — method: RNA Bind-n-Seq; molecule type: RNA; medium: in vitro; concentration: 1 µM; notes: whole 134-nt RNA, ends assumed; together with: 150 mM KCl; baseline: input library; direction: higher = stronger binding
Target: Ras GTPase-activating protein-binding protein 1, RRM domain (G3BP1, Homo sapiens, UniProt Q13283)
Sequence of UniProt Q13283 (whole entry, looked up): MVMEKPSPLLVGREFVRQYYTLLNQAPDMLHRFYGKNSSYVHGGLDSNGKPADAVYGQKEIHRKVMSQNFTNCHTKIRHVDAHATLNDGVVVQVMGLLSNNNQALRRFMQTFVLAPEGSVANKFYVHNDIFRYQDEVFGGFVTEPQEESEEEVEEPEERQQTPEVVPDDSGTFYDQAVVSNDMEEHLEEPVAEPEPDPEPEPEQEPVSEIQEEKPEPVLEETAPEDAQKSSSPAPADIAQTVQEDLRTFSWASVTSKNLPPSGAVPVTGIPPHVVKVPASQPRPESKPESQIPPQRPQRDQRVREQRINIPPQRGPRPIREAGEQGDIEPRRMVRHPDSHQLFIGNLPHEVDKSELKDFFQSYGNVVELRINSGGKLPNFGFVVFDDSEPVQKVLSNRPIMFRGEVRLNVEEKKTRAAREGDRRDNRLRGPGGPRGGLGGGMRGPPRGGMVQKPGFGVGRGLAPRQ
| Strand | log2 enrichment |
| --- | --- |
| GGGAGUUCUACAGUCCGACGAUCUAACUUUAGAGGAGGAUCUGAUGGAUAUGGCAGUGGACGUGGAUUUGGGAAUGGCUAUAAUGGGUAUGGAGGAGGACCUGGAGGUGGCAAUGGAAUUCUCGGGUGUCAAGG | -0.736 |
| GGGAGUUCUACAGUCCGACGAUCGUCCUGUGCUACACAUCGUAUGUACCGAAUCGGGUUUUUGGUUUUUGGGGUUUUUGGGGAAAGUAUUAUGUUACGCCGUUCGGAUCUGCAUGGAAUUCUCGGGUGUCAAGG | -0.0141 |
| GGGAGUUCUACAGUCCGACGAUCGCAGGAAGUAAAAACAAAUGGAAAUGCUUCGGAUAGUGGAAAGGGUGGGGGUUGCUAAGGAAAGGGUGGGAUGGGAGUGGGUAAAGAGUUUGGAAUUCUCGGGUGUCAAGG | 1.33 |
| GGGAGUUCUACAGUCCGACGAUCUCAAGUCCUGUGCUACACAUCGUAUGUACCGAAUCGGGAAAAAGGGAGGGAGGGAAAGUAUUAUGUUACGCCGUUCGGAUCUGCACUUCCUGGAAUUCUCGGGUGUCAAGG | 0.83 |

Further values, each from its own experiment
| Molecule | target | assay | system | conditions | scale | endpoint | result |
| --- | --- | --- | --- | --- | --- | --- | --- |
| PhoQ, residues 284 288 289 292 302 303 SCCLKL | PhoP, residues 12 14 15 18 19 IQSYL (Escherichia coli, UniProt P23836) | Sort-seq, refers to: YFP reporter | E. coli | PhoQ-PhoP variant library, together with: 10 µM Mg2+ | baseline: high Mg2+ state, higher = stronger signaling | fold induction | 11.2 |

A few entries again (series 2):
| Variant | normalised enrichment score |
| --- | --- |
| HKTFRKARLFDTP [L7A] | 0.0657 |
